Assay results gathered from unrelated publications.
Each numbered part is a random draw from the data of one study; scales do not carry over between parts.
Chain of UniProt P29317 (whole entry, looked up): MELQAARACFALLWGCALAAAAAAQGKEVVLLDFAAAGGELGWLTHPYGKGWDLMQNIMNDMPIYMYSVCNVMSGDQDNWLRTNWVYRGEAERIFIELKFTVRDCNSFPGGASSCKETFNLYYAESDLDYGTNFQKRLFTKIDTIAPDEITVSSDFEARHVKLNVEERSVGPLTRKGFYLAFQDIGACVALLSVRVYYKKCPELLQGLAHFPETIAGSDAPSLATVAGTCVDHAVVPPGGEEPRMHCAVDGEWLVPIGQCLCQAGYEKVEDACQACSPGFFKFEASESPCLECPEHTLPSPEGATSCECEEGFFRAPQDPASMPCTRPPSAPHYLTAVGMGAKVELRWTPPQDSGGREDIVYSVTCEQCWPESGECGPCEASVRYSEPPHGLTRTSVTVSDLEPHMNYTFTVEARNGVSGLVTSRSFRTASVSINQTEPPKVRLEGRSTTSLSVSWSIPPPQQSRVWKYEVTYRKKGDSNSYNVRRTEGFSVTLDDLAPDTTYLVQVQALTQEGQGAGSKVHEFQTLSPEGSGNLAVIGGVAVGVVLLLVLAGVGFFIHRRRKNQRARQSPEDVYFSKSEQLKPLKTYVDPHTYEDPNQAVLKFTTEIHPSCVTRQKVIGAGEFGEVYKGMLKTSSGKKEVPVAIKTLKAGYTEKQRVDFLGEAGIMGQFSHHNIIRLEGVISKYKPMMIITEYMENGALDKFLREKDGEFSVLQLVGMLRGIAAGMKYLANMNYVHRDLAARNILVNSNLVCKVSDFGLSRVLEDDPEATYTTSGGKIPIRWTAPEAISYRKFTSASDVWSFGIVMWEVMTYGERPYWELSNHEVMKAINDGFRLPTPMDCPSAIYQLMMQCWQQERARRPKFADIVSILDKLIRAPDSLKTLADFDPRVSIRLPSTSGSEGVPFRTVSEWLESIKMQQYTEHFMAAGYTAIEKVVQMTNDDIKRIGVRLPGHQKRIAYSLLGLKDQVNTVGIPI
Chain of UniProt P80192 (whole entry, looked up): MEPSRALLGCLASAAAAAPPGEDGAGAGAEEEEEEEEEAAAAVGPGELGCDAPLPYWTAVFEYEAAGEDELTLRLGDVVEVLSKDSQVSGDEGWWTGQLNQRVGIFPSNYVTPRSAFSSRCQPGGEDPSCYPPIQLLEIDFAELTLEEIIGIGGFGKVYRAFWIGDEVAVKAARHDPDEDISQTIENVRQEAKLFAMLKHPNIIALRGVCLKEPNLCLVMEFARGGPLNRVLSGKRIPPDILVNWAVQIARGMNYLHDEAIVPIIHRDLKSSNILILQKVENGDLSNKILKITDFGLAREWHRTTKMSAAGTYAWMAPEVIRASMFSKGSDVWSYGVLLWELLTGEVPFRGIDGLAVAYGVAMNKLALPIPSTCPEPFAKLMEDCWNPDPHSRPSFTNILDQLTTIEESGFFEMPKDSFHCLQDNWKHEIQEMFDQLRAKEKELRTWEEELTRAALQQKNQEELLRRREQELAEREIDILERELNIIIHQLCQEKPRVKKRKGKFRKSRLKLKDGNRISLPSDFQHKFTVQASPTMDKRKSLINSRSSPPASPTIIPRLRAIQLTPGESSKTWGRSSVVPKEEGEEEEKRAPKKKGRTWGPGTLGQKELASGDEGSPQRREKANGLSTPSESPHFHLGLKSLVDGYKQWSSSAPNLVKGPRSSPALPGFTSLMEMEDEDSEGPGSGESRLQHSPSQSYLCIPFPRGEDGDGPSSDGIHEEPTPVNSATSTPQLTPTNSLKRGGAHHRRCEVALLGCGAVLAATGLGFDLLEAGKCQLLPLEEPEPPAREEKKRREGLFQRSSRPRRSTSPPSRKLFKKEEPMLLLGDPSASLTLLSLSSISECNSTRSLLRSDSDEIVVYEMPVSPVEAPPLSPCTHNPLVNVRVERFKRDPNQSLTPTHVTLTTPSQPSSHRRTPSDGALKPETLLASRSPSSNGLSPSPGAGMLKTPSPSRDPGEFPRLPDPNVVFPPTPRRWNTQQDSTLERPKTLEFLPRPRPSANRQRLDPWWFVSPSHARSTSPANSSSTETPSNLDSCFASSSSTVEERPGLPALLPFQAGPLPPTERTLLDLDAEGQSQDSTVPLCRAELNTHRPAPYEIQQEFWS
Chain of UniProt P50750 (whole entry, looked up): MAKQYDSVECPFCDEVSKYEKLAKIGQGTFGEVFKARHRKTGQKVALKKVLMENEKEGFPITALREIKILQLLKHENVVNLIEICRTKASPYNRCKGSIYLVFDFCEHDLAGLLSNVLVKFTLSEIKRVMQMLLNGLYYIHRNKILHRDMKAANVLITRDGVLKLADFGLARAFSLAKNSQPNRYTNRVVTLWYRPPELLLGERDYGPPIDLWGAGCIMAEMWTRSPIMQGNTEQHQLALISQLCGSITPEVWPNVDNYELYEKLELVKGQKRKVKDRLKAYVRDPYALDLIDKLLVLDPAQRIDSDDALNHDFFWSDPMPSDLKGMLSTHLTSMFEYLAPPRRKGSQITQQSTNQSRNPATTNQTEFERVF

Series 1 — Compound: Cc1ccc(NC2=CC(=O)c3sc(C)nc3C2=O)cc1; effect on: enzyme activity; action: inhibitor; concentration: 0.5 µM; baseline: control
Tyrosine-protein kinase Tec (TEC, Homo sapiens, UniProt P42680) — remaining activity: 117%.
For SRSF protein kinase 1 (SRPK1, Homo sapiens, UniProt Q96SB4): remaining activity read 92.6%.
Ribosomal protein S6 kinase alpha-3 (RPS6KA3, Homo sapiens, UniProt P51812) — remaining activity: 104%.
Serine/threonine-protein kinase Sgk2 (SGK2, Homo sapiens, UniProt Q9HBY8) — remaining activity: 94.6%.
The remaining activity was 87.5% (Serine/threonine-protein kinase PAK 1 (PAK1, Homo sapiens, UniProt Q13153)).
For Serine/threonine-protein kinase SIK2 (SIK2, Homo sapiens, UniProt Q9H0K1): remaining activity read 118%.
The remaining activity was 95.1% (Tyrosine-protein kinase JAK1 (JAK1, Homo sapiens, UniProt P23458)).
The remaining activity was 94% (Mitogen-activated protein kinase kinase kinase 20 (MAP3K20, Homo sapiens, UniProt Q9NYL2)).
For Insulin-like growth factor 1 receptor (IGF1R, Homo sapiens, UniProt P08069): remaining activity read 92.2%.
The remaining activity was 95.3% (Tyrosine-protein kinase receptor TYRO3 (TYRO3, Homo sapiens, UniProt Q06418)).
It gave 110% for remaining activity (Serine/threonine-protein kinase PAK 6 (PAK6, Homo sapiens, UniProt Q9NQU5)).
The remaining activity was 108% (Calcium/calmodulin-dependent protein kinase kinase 1 (CAMKK1, Homo sapiens, UniProt Q8N5S9)).
Dual specificity protein kinase CLK1 (CLK1, Homo sapiens, UniProt P49759) — remaining activity: 100%.
The remaining activity was 98.2% (Protein kinase C zeta type (PRKCZ, Homo sapiens, UniProt Q05513)).
The remaining activity was 87.6% (Calcium/calmodulin-dependent protein kinase type 1 (CAMK1, Homo sapiens, UniProt Q14012)).
Ephrin type-A receptor 2 (EPHA2, Homo sapiens, UniProt P29317) — remaining activity: 102%.
For Casein kinase I isoform delta (CSNK1D, Homo sapiens, UniProt P48730): remaining activity read 101%.
Vascular endothelial growth factor receptor 1 (FLT1, Homo sapiens, UniProt P17948) — remaining activity: 89.8%.
The remaining activity was 93.4% (Casein kinase I isoform epsilon (CSNK1E, Homo sapiens, UniProt P49674)).
The remaining activity was 93% (Protein kinase C theta type (PRKCQ, Homo sapiens, UniProt Q04759)).
It gave 83.6% for remaining activity (Dual specificity protein kinase CLK2 (CLK2, Homo sapiens, UniProt P49760)).

Series 2 — cell line: mouse MPNST tumor cells; method: high-content nuclear imaging; item: cell number; concentration: 10 µM; time: 12 h; setting: mean of 2 replicates; baseline: plate mean; reading: higher = more cells
With NCc1ccccc1CC(=O)N[C@@H]1C(=O)N2C(C(=O)O)=C(CSc3nnnn3CC(=O)O)CS[C@H]12 the nuclei count was -0.692 z-score.
For CCOC(=O)c1ccc(N(C)c2csc(-c3ccccc3)n2)cc1, the nuclei count was -0.0232 z-score.
With Cc1cc(C)cc(OCC2CNC(=O)O2)c1 (stereo not shown) the nuclei count was 0.177 z-score.
C[C@H]1[C@@H](O)O[C@@H]2O[C@@]3(C)CC[C@H]4[C@H](C)CC[C@@H]1[C@@]24OO3 gave a nuclei count of -3.08 z-score.
For CCN(CC)CCc1nc(-c2ccccc2)no1, the nuclei count was -0.0583 z-score.
COc1cc(OC)cc(C(=O)NNC(=O)Nc2cccc3ccccc23)c1 has a nuclei count of 0.854 z-score.

Series 3 — effect on: enzyme activity; action: inhibitor; concentration: 77 µM; baseline: untreated
Target: DNA polymerase theta, ATPase domain (POLQ, Homo sapiens, UniProt O75417)
Chain of UniProt O75417 (whole entry, unmodified, looked up): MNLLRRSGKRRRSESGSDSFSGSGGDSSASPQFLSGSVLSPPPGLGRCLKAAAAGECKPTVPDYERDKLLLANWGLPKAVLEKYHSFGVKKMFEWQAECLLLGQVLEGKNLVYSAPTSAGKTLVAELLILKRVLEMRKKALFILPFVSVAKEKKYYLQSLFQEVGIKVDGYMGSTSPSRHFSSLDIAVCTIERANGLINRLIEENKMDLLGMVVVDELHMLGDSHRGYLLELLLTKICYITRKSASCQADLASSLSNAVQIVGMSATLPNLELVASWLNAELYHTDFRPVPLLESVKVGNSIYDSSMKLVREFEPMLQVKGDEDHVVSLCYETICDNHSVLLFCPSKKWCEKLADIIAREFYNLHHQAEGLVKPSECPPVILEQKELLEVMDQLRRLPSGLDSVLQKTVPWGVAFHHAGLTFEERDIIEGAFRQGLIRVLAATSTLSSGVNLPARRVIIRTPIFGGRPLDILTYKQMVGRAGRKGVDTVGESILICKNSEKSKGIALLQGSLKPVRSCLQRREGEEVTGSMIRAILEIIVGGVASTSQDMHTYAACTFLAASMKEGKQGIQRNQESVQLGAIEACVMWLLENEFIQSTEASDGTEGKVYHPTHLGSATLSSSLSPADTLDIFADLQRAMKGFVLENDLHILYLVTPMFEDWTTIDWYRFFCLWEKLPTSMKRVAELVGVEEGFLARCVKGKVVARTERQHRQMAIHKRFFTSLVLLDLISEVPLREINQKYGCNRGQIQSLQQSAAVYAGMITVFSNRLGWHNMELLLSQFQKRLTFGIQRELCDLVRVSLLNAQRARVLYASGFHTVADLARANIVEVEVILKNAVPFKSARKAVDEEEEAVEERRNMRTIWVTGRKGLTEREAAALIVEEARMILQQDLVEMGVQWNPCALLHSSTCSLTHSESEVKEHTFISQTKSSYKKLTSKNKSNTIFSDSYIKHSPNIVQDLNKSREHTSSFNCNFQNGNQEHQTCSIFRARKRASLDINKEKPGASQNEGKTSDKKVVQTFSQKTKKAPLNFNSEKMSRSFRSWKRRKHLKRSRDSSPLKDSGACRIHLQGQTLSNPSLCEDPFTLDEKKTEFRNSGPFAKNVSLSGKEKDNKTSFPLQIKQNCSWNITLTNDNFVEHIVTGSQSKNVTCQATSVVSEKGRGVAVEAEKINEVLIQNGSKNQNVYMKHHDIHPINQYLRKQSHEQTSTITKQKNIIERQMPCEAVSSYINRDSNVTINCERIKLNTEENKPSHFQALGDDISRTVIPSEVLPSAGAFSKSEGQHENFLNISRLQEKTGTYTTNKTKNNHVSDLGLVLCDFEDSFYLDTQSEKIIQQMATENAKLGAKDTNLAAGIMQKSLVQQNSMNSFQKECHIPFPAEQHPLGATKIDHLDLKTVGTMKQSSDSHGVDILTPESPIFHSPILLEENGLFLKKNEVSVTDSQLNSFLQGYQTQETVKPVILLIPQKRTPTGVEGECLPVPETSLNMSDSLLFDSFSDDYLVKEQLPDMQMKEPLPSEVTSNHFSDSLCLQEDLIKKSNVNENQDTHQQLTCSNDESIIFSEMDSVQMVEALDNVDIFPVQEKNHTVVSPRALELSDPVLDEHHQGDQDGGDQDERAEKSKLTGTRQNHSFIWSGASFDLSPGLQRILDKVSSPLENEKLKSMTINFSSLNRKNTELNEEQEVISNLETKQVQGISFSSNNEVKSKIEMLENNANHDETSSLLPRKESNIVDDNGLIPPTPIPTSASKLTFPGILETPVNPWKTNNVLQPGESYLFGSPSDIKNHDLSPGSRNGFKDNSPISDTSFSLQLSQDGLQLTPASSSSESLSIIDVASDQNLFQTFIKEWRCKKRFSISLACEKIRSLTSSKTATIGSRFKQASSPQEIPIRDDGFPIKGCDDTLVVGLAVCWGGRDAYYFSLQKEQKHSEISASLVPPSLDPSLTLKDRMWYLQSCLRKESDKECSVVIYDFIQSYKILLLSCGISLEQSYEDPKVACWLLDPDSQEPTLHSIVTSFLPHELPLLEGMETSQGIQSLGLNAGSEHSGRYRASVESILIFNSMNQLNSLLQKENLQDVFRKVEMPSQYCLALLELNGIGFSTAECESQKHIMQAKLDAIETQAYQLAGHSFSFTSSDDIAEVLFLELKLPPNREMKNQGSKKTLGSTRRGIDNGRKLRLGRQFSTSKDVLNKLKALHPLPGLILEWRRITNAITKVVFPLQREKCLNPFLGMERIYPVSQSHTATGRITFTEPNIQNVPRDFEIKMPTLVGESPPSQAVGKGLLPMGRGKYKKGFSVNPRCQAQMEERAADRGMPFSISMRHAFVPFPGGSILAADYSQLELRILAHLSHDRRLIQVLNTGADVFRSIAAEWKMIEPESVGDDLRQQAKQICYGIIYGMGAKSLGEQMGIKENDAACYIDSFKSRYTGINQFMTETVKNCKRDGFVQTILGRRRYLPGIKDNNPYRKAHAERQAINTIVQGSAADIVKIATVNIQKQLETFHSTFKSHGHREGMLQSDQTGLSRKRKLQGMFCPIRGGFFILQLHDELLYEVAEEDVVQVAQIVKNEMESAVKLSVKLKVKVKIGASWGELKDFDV
The remaining activity of O=c1oc2cc(O)ccc2s1 is reported as 99.5%.
With O=C(O[C@H]1C[N+]2(CCCOc3ccccc3)CCC1CC2)C(O)(c1cccs1)c1cccs1 the remaining activity was 99.4%.
With CN1C(=O)CC(c2ccccc2)C1=O (stereo not shown) the remaining activity was 98.5%.
For CNC(=O)c1cc(COc2nnc(Nc3ccc(Cl)cc3)c3ccoc23)ccn1, the remaining activity was 104%.

Series 4 — concentration: 0.1 µM
SMILES: Cn1cc(Cl)c2c(Oc3c(F)cc(Nc4cc(Cl)nc(N)n4)cc3F)ccnc21
The remaining binding was 74% (Serine/threonine-protein kinase D1 (PRKD1, Homo sapiens, UniProt Q15139); cell-free assay, competition with immobilised ligand).
For Tyrosine-protein kinase Lyn (LYN, Homo sapiens, UniProt P07948); cell-free assay, competition with immobilised ligand: remaining binding read 99%.
5'-AMP-activated protein kinase catalytic subunit alpha-1 (PRKAA1, Homo sapiens, UniProt Q13131); cell-free assay, competition with immobilised ligand — remaining binding: 100%.
Cyclin-dependent kinase 9 (CDK9, Homo sapiens, UniProt P50750); cell-free assay, competition with immobilised ligand — remaining binding: 100%.
It gave 100% for remaining binding (Serine/threonine-protein kinase MRCK gamma (CDC42BPG, Homo sapiens, UniProt Q6DT37); competition binding).
It gave 100% for remaining binding (Ephrin type-A receptor 2 (EPHA2, Homo sapiens, UniProt P29317); cell-free assay, competition with immobilised ligand).
It gave 99% for remaining binding (Receptor-type tyrosine-protein kinase FLT3 (FLT3, Homo sapiens, UniProt P36888, D835Y); cell-free assay, competition with immobilised ligand).
It gave 100% for remaining binding (Bone morphogenetic protein receptor type-2 (BMPR2, Homo sapiens, UniProt Q13873); cell-free assay, competition with immobilised ligand).
It gave 96% for remaining binding (Mitogen-activated protein kinase kinase kinase 9 (MAP3K9, Homo sapiens, UniProt P80192); cell-free assay, competition with immobilised ligand).

Series 5 — action: inhibitor
Structure (SMILES): Cc1nc(Nc2ncc(C(=O)Nc3c(C)cccc3Cl)s2)cc(N2CCN(CCO)CC2)n1
It gave 96% for inhibition (Serine/threonine-protein kinase NLK (NLK, Homo sapiens, UniProt Q9UBE8); 10 µM).
It gave 94% for inhibition (Ephrin type-A receptor 3 (EPHA3, Homo sapiens, UniProt P29320); 10 µM).
The inhibition was < 50% (Mitotic checkpoint serine/threonine-protein kinase BUB1 (BUB1, Homo sapiens, UniProt O43683); 1 µM).
For MAP/microtubule affinity-regulating kinase 3 (MARK3, Homo sapiens, UniProt P27448); 10 µM: inhibition read < 50%.
The inhibition was < 50% (Mitogen-activated protein kinase kinase kinase 9 (MAP3K9, Homo sapiens, UniProt P80192); 10 µM).
The inhibition was 100% (Epithelial discoidin domain-containing receptor 1 (DDR1, Homo sapiens, UniProt Q08345); 1 µM).
